Assay results gathered from unrelated publications.
Numbered parts are unrelated; each lists some results of a single study.
Sequence of UniProt P42336 (whole entry, unmodified, looked up): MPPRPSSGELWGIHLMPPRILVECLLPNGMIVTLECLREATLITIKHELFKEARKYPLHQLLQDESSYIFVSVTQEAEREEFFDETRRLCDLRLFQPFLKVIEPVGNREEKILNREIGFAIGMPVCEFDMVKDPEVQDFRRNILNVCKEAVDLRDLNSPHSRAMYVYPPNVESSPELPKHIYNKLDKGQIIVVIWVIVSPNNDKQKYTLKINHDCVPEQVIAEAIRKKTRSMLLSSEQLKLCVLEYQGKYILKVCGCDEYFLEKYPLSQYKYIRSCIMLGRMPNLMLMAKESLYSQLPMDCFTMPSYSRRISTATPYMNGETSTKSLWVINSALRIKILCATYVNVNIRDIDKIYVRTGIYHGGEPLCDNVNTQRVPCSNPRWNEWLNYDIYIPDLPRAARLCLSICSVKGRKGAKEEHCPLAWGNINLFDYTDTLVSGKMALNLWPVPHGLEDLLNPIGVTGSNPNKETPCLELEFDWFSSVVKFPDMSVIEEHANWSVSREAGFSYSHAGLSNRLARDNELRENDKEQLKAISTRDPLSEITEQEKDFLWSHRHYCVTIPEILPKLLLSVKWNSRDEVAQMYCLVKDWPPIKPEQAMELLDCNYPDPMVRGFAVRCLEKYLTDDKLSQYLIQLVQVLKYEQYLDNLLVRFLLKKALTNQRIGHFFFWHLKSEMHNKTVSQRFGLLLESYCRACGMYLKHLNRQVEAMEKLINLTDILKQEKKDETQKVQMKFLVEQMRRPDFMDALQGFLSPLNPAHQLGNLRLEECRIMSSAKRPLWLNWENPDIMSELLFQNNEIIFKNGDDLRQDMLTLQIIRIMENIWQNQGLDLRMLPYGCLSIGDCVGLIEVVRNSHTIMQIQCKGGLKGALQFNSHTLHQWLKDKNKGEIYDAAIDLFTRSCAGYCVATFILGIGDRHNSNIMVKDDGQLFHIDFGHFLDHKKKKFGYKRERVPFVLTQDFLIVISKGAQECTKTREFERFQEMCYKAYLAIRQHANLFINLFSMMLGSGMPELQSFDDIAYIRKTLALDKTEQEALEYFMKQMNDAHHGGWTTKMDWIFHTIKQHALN
Sequence of UniProt Q9UK32 (whole entry, looked up): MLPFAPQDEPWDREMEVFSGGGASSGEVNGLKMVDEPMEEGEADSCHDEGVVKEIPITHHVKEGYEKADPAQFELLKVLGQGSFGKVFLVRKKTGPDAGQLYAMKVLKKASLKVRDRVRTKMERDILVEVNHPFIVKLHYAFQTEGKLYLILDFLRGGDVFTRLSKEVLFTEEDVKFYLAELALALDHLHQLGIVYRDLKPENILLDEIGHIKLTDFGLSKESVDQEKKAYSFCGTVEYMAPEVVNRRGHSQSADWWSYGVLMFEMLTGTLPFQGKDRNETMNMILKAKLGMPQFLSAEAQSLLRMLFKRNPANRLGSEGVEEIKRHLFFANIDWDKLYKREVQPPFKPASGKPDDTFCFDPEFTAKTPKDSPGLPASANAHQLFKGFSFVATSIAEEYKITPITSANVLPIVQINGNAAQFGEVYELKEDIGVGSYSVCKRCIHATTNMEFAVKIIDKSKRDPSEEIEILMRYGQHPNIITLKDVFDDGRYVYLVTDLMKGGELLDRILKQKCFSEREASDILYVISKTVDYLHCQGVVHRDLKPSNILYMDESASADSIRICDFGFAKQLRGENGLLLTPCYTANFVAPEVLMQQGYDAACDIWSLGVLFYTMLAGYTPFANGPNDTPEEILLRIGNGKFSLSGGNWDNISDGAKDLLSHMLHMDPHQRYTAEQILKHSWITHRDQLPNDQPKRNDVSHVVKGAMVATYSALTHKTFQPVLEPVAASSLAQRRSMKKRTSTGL
Sequence of UniProt Q9BYP7 (whole entry, looked up): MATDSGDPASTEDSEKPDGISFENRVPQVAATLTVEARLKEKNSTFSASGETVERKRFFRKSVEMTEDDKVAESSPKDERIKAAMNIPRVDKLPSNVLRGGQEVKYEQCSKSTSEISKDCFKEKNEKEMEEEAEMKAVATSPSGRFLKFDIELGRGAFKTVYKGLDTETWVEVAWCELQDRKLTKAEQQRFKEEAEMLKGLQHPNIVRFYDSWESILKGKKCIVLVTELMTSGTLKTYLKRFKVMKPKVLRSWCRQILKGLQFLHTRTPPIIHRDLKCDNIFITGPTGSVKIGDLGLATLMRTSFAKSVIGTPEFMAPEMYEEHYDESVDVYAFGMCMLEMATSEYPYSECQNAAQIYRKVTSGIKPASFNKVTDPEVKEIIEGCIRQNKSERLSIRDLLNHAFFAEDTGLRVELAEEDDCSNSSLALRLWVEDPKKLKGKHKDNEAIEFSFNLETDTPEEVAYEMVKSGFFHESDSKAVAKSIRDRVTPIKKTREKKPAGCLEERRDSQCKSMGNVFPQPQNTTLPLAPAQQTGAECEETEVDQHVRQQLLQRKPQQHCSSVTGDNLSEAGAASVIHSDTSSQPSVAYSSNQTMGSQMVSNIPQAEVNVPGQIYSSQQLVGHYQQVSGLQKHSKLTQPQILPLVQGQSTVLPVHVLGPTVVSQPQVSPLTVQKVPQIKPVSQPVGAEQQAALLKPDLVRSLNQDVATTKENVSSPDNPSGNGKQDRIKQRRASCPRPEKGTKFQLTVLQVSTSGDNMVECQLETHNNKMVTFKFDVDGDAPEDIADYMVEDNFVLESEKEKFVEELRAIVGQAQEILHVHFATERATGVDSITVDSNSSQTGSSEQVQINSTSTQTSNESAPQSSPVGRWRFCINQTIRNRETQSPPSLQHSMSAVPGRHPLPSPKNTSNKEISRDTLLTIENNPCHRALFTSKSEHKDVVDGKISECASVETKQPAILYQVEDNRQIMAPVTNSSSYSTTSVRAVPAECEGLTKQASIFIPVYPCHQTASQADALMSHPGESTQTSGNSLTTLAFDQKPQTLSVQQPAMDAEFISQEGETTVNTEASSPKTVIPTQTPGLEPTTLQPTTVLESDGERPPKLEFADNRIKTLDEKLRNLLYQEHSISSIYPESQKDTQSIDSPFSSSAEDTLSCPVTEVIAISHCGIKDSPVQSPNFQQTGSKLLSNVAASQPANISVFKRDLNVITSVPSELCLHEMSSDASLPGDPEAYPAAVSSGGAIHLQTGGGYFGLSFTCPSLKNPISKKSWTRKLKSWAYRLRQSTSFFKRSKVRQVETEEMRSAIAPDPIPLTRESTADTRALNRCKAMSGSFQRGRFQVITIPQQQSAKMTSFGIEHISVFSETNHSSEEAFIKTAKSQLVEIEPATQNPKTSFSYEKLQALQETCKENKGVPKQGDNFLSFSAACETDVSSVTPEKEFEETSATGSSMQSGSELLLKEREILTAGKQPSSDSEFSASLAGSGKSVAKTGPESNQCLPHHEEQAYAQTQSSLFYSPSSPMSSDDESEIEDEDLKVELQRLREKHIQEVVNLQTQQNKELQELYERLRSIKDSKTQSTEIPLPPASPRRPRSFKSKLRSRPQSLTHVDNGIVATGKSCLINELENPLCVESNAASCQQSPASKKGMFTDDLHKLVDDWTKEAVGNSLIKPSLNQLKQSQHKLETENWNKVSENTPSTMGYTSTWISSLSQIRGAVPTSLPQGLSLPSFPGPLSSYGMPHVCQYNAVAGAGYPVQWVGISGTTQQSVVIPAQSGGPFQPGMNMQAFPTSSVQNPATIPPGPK
Sequence of UniProt Q52WX2 (whole entry, looked up): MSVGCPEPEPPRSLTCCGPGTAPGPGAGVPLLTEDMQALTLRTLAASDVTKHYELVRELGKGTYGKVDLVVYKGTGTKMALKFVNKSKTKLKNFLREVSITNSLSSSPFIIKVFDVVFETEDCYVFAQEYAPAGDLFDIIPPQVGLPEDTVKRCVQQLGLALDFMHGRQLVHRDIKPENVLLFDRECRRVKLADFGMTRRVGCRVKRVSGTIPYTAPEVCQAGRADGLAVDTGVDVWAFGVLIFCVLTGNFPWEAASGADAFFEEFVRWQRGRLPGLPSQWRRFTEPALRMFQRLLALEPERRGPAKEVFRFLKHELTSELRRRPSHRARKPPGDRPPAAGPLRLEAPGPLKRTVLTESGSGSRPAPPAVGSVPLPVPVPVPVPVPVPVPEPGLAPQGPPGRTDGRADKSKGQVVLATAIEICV

Block 1
SMILES: O=C(Nc1cnc(Oc2ccc(F)cc2)nc1)N1CCc2ncccc2[C@@H]1c1ccc(F)cc1
Concentration: 1 µM
It gave 81% for remaining binding (Phosphatidylinositol 4,5-bisphosphate 3-kinase catalytic subunit alpha isoform (PIK3CA, Homo sapiens, UniProt P42336, E542K); cell-free assay, competition with immobilised ligand).
It gave 97% for remaining binding (LIM domain kinase 2 (LIMK2, Homo sapiens, UniProt P53671); cell-free assay, competition with immobilised ligand).
Glycogen synthase kinase-3 beta (GSK3B, Homo sapiens, UniProt P49841); cell-free assay, competition with immobilised ligand — remaining binding: 100%.
It gave 81% for remaining binding (Tyrosine-protein kinase ABL1, non-phosphorylated (ABL1, Homo sapiens, UniProt P00519, F317L); cell-free assay, competition with immobilised ligand).
It gave 93% for remaining binding (BMP-2-inducible protein kinase (BMP2K, Homo sapiens, UniProt Q9NSY1); cell-free assay, competition with immobilised ligand).
AP2-associated protein kinase 1 (AAK1, Homo sapiens, UniProt Q2M2I8); binding — remaining binding: 91%.
The remaining binding was 100% (Casein kinase I isoform delta (CSNK1D, Homo sapiens, UniProt P48730); cell-free assay, competition with immobilised ligand).
For Tyrosine-protein kinase TXK (TXK, Homo sapiens, UniProt P42681); binding, competition with immobilised ligand: remaining binding read 87%.
For Serine/threonine-protein kinase SBK1 (SBK1, Homo sapiens, UniProt Q52WX2); cell-free assay, competition with immobilised ligand: remaining binding read 100%.
It gave 86% for remaining binding (Dual specificity protein kinase TTK (TTK, Homo sapiens, UniProt P33981); cell-free assay, competition with immobilised ligand).
For Casein kinase I isoform alpha-like (CSNK1A1L, Homo sapiens, UniProt Q8N752); cell-free assay, competition with immobilised ligand: remaining binding read 82%.
It gave 95% for remaining binding (Phosphatidylinositol 4,5-bisphosphate 3-kinase catalytic subunit alpha isoform (PIK3CA, Homo sapiens, UniProt P42336, Q546K); cell-free assay, competition with immobilised ligand).
Ribosomal protein S6 kinase alpha-6, C-terminal kinase domain (RPS6KA6, Homo sapiens, UniProt Q9UK32); cell-free assay, competition with immobilised ligand — remaining binding: 82%.
The remaining binding was 90% (Myosin light chain kinase 2, skeletal/cardiac muscle (MYLK2, Homo sapiens, UniProt Q9H1R3); cell-free assay, competition with immobilised ligand).
It gave 97% for remaining binding (Mitogen-activated protein kinase kinase kinase 3 (MAP3K3, Homo sapiens, UniProt Q99759); cell-free assay, competition with immobilised ligand).

Block 2
SMILES: Nc1nc(Nc2ccc(S(N)(=O)=O)cc2)nn1C(=S)Nc1c(F)cccc1F
Read-out: enzyme activity
Mode: inhibitor
Concentration: 0.5 µM
Baseline: control
It gave 19.3% for remaining activity (3-phosphoinositide-dependent protein kinase 1 (PDPK1, Homo sapiens, UniProt O15530)).
For MAP kinase-activated protein kinase 3 (MAPKAPK3, Homo sapiens, UniProt Q16644): remaining activity read 89.6%.
It gave 91.3% for remaining activity (Testis-specific serine/threonine-protein kinase 2 (TSSK2, Homo sapiens, UniProt Q96PF2)).
The remaining activity was 4.46% (Mitogen-activated protein kinase kinase kinase kinase 4 (MAP4K4, Homo sapiens, UniProt O95819)).
For Tyrosine-protein kinase Blk (BLK, Homo sapiens, UniProt P51451): remaining activity read 38.6%.
It gave 62.1% for remaining activity (Homeodomain-interacting protein kinase 2 (HIPK2, Homo sapiens, UniProt Q9H2X6)).
The remaining activity was 2.42% (Ribosomal protein S6 kinase alpha-6 (RPS6KA6, Homo sapiens, UniProt Q9UK32)).
It gave 19.4% for remaining activity (Ephrin type-B receptor 1 (EPHB1, Homo sapiens, UniProt P54762)).
It gave 82.2% for remaining activity (Serine/threonine-protein kinase WNK3 (WNK3, Homo sapiens, UniProt Q9BYP7)).
The remaining activity was 34.2% (Tyrosine-protein kinase receptor UFO (AXL, Homo sapiens, UniProt P30530)).
For Ribosomal protein S6 kinase alpha-5 (RPS6KA5, Homo sapiens, UniProt O75582): remaining activity read 68.1%.
The remaining activity was 11.1% (Serine/threonine-protein kinase 17A (STK17A, Homo sapiens, UniProt Q9UEE5)).
It gave 42.5% for remaining activity (Serine/threonine-protein kinase 16 (STK16, Homo sapiens, UniProt O75716)).

Block 3
Cell line: A-375
Concentration: 100 µM
Time: 18 h
For `CCN(CC)C(=O)Nc1ccc(OCC(O)CNC(C)(C)C)c(C(C)=O)c1` (centres unmarked), the viability was 88.7%.
`Cc1ncc([N+](=O)[O-])n1CC(O)CCl` (centres unmarked) has a viability of 79.5%.
For `CC(=O)O[C@H]1C(=O)[C@@]2(C)[C@H]([C@H](OC(=O)c3ccccc3)[C@]3(O)C[C@H](OC(=O)[C@H](O)[C@@H](NC(=O)c4ccccc4)c4ccccc4)C(C)=C1C3(C)C)[C@]1(OC(C)=O)CO[C@@H]1C[C@@H]2O`, the viability was 64.9%.
`COc1ccc([C@@H]2CC(=O)c3c(O)cc(O)cc3O2)cc1O` has a viability of 99.6%.
`O=C(c1ccccc1)c1ccc2n1CCC2C(=O)O` (centres unmarked) gave a viability of 48.1%.
With `COc1c(C)c2c(c(O)c1C/C=C(\C)CCC(=O)O)C(=O)OC2` the viability was 78.6%.
`NC(=O)c1ncn([C@@H]2O[C@H](CO)[C@@H](O)[C@H]2O)n1` gave a viability of 93.9%.
With `Nc1nc(Cl)nc2c1ncn2[C@H]1C[C@H](O)[C@@H](CO)O1` the viability was 54.1%.
`COc1cc2c(N3CCN(C(=O)Nc4ccc(OC(C)C)cc4)CC3)ncnc2cc1OCCCN1CCCCC1` has a viability of 16.2%.

Block 4
Compound: C=CCc1ccc(O)c(-c2cc(CC=C)ccc2O)c1
ANO1 del476-501/M544A: Anoctamin-1 (ANO1, Homo sapiens, UniProt Q5XXA6, del476-501/M544A)
Sequence of UniProt Q5XXA6 (whole entry, unmodified, looked up): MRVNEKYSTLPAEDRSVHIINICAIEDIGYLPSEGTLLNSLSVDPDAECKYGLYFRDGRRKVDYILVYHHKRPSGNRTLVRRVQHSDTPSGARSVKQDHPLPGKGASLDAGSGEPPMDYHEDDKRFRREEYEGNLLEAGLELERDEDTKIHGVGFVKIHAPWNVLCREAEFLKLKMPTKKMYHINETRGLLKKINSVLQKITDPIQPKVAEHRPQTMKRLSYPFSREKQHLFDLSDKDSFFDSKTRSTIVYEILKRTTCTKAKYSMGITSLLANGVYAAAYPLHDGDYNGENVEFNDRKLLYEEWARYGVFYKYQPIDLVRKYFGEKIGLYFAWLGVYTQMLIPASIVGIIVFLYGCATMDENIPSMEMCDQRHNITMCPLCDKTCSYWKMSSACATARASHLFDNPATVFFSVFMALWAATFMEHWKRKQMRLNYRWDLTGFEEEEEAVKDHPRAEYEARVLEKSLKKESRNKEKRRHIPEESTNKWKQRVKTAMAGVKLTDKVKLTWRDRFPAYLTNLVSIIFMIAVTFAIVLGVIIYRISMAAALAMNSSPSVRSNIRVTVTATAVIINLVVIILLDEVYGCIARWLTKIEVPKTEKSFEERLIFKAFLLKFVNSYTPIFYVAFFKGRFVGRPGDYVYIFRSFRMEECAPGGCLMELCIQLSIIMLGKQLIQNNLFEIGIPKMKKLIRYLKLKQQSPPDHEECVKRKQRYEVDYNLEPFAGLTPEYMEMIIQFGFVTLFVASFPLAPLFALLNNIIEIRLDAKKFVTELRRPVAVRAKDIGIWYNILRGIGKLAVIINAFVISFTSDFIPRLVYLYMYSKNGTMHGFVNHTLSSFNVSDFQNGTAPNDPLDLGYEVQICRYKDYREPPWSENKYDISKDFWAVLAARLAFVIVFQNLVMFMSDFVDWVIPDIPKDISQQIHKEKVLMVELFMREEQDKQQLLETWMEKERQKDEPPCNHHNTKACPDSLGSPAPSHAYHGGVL
ANO1 del476-501/E649A: Anoctamin-1 (ANO1, Homo sapiens, UniProt Q5XXA6, del476-501/E649A)
The normalized current was 0.992 (Anoctamin-1 (ANO1, Homo sapiens, UniProt Q5XXA6, del476-501/R541A); chloride current, inhibitor, whole-cell voltage clamp; 3 µM, R515A mutant).
It gave 0.0954 for normalized current (Anoctamin-1 (ANO1, Homo sapiens, UniProt Q5XXA6, del476-501/E649A/R541A); chloride current, inside-out patch clamp; 30 µM, membrane voltage 20 mV).
For ANO1 del476-501/M544A; chloride current, inhibitor, whole-cell voltage clamp; 3 µM, M518A mutant; baseline: untreated: normalized current read 0.984.
It gave 0.321 for normalized current (TMEM16A (human) K603A/E623A; chloride current, inside-out patch clamp; 30 µM, membrane voltage 60 mV).
The normalized current was 0.984 (ANO1 del476-501/M544A; chloride current, inhibitor, whole-cell voltage clamp; 10 µM, M518A mutant; baseline: untreated).
Anoctamin-1 (ANO1, Homo sapiens, UniProt Q5XXA6, del476-501); chloride current, whole-cell voltage clamp; 10 µM, membrane voltage 0 mV, together with: 4 µM Ca2+ (saturating) — normalized current: -0.0011.
TMEM16A (human) K603A/E623A; chloride current, inside-out patch clamp; 30 µM, membrane voltage -40 mV — normalized current: -0.129.
It gave 0.128 for normalized current (ANO1 del476-501/E649A; ion current, inside-out patch clamp; 30 µM, E623A mutant at 20 mV).
The normalized current was 1 (ANO1 del476-501/E649A; chloride current, inhibitor, whole-cell voltage clamp; 3 µM, E623A mutant).
For Anoctamin-1 (ANO1, Homo sapiens, UniProt Q5XXA6, del476-501/E659A); chloride current, inside-out patch clamp; 30 µM, membrane voltage -60 mV: normalized current read -0.63.

Excerpt of the above (block 4):
It gave 0.128 for normalized current (ANO1 del476-501/E649A; ion current, inside-out patch clamp; 30 µM, E623A mutant at 20 mV).
It gave 0.0954 for normalized current (Anoctamin-1 (ANO1, Homo sapiens, UniProt Q5XXA6, del476-501/E649A/R541A); chloride current, inside-out patch clamp; 30 µM, membrane voltage 20 mV).
It gave 0.321 for normalized current (TMEM16A (human) K603A/E623A; chloride current, inside-out patch clamp; 30 µM, membrane voltage 60 mV).
Anoctamin-1 (ANO1, Homo sapiens, UniProt Q5XXA6, del476-501); chloride current, whole-cell voltage clamp; 10 µM, membrane voltage 0 mV, together with: 4 µM Ca2+ (saturating) — normalized current: -0.0011.
